Measured values pooled from the literature.
Numbered parts are unrelated; each lists some results of a single study.

Block 1
Target: PABPC1L2, full length, GST fusion (mouse, UniProt A0ABA7IW68)
Method: RNAcompete
Molecule type: RNA
Matrix: in vitro
Tested at: 20 nM
Setting: 7-mer, probes averaged, single round
Baseline: mean of 7-mers
Reading: higher = stronger binding
Construct (chain): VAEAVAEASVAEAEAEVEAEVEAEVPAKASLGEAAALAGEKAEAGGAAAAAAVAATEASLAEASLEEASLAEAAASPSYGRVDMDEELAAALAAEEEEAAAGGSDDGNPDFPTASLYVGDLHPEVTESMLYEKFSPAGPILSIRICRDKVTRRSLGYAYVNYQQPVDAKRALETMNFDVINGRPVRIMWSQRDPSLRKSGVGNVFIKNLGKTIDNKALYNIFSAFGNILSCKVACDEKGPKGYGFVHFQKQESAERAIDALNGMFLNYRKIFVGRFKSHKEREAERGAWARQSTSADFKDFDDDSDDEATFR
Sequence	7-mer Z-score
UAUACGC	-0.231
CCGAAGC	-0.113
AAACUGG	1.31
CUGCCGC	-0.327
AGAAUUC	-0.206

Block 2
Target: Interferon regulatory factor 3, full length, phosphomimetic (IRF3, Homo sapiens, UniProt Q14653, residues 1-427, S386D/S396D/S398D/S402D/T404D/S405D)
Method: protein-binding microarray
Molecule type: double-stranded DNA, one strand shown
Matrix: in vitro
Tested at: 2540 nM top
Setting: 60-bp whole probe
With: salmon DNA 0.4 mg/ml
Baseline: random background probes
Reading: higher = stronger binding
Residues (chain): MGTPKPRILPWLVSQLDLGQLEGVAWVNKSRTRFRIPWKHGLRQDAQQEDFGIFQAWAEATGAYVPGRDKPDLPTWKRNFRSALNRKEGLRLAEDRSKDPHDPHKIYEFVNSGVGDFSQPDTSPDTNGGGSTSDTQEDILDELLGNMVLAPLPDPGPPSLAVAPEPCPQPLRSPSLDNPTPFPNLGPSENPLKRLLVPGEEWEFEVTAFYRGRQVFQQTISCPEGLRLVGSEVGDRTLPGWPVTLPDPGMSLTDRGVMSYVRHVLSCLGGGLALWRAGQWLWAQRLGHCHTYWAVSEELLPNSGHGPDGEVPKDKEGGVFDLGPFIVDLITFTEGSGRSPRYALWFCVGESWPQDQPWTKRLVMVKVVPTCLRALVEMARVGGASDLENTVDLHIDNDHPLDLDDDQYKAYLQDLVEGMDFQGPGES
Sequence	fitted relative affinity
GCCTAGCACCACGAACTGGGGACTGGAGACGTGCTAGTCTTGATTCGCTTGACGCTGCTG	-0.547 z-score
GCCTAGCACGACGGTTACGGTTCCGGGACGTGCTAGGTCTTGATTCGCTTGACGCTGCTG	2.33 z-score
GCCTAGCACTTAGGACTGGACAGTGGGTTAGTGCTAGTCTTGATTCGCTTGACGCTGCTG	-0.715 z-score

Block 3
Target: Centromere-binding protein 1, full length, His-tagged (CBF1, Saccharomyces cerevisiae, UniProt P17106, residues 1-351)
Sequence of UniProt P17106 (whole entry, looked up): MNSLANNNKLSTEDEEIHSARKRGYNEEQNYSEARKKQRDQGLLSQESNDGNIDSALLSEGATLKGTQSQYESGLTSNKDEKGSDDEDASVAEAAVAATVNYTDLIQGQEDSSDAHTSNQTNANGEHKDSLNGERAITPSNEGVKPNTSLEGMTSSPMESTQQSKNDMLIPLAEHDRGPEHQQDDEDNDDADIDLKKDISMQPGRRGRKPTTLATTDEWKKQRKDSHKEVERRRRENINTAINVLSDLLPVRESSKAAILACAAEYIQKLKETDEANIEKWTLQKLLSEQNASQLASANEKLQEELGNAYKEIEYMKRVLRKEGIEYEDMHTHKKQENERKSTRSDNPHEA
Method: competition protein-binding microarray
Molecule type: double-stranded DNA, one strand shown
Matrix: in vitro
Tested at: 2 µM
Setting: whole 60-bp probe, lowest competitor level
With: Pho4 competitor, 0.05 µM
Reading: higher = stronger binding
Sequence	fluorescence intensity [a.u.]
GAATAGAGGTGGTGAGTCGTGCGGAACGACGAACCTGTCTTGATTCGCTTGACGCTGCTG	59.1
CTAACGAAGGTTTGCCTAGTGGGTGACAAGCCAAGTGTCTTGATTCGCTTGACGCTGCTG	75.5
CTAACGAAGGTTTGTCACTTTACTTACAAGCCAAGTGTCTTGATTCGCTTGACGCTGCTG	83
AGGTGCCTTCGGTAACATGTGTCTTGGTGGTCGTATGTCTTGATTCGCTTGACGCTGCTG	86.3

Further values, each from its own experiment
Substance	target	assay	test system	setting	scale	measurement	value
PhoQ, residues 284 288 289 292 302 303 TASMAF	PhoP, residues 12 14 15 18 19 NIMAP (Escherichia coli, UniProt P23836)	Sort-seq, measured: YFP reporter	E. coli	PhoQ-PhoP variant library, with: 10 µM Mg2+	baseline: high Mg2+ state, higher = stronger signaling	fold induction	0.505

Repeated from above (block 1):
Sequence	7-mer Z-score
CCGAAGC	-0.113
UAUACGC	-0.231
